# Results of several laboratories.
# Each line is one published result; not all experiments were run side by side. ± marks the error that the study gave. Ends that are not written are not given here.
# CRYBA1: CRYBA1, Alexa Fluor 488 label (Homo sapiens, UniProt P05813)
# Chain of UniProt P05813 (whole entry, looked up): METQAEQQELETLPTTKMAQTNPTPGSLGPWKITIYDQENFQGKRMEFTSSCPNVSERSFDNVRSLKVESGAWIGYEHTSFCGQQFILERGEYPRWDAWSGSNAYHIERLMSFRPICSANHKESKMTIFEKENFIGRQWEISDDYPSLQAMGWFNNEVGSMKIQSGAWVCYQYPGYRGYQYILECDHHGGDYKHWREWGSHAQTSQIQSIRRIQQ
# B1: MIF4GD (Homo sapiens, UniProt A9UHW6); sequence looked up; chain MGEPSREEYKIQSFDAETQQLLKTALKDPGAVDLEKVANVIVDHSLQDCVFSKEAGRMCYAIIQAESKQAGQSVFRRGLLNRLQQEYQAREQLRARSLQGWVCYVTFICNIFDYLRVNNMPMMALVNPVYDCLFRLAQPDSLSKEEEVDCLVLQLHRVGEQLEKMNGQRMDELFVLIRDGFLLPTGLSSLAQLLLLEIIEFRAAGWKTTPAAHKYYYSEVSD
# B2: Ctnnb1 (Mus musculus, UniProt Q02248); sequence looked up; chain MATQADLMELDMAMEPDRKAAVSHWQQQSYLDSGIHSGATTTAPSLSGKGNPEEEDVDTSQVLYEWEQGFSQSFTQEQVADIDGQYAMTRAQRVRAAMFPETLDEGMQIPSTQFDAAHPTNVQRLAEPSQMLKHAVVNLINYQDDAELATRAIPELTKLLNDEDQVVVNKAAVMVHQLSKKEASRHAIMRSPQMVSAIVRTMQNTNDVETARCTAGTLHNLSHHREGLLAIFKSGGIPALVKMLGSPVDSVLFYAITTLHNLLLHQEGAKMAVRLAGGLQKMVALLNKTNVKFLAITTDCLQILAYGNQESKLIILASGGPQALVNIMRTYTYEKLLWTTSRVLKVLSVCSSNKPAIVEAGGMQALGLHLTDPSQRLVQNCLWTLRNLSDAATKQEGMEGLLGTLVQLLGSDDINVVTCAAGILSNLTCNNYKNKMMVCQVGGIEALVRTVLRAGDREDITEPAICALRHLTSRHQEAEMAQNAVRLHYGLPVVVKLLHPPSHWPLIKATVGLIRNLALCPANHAPLREQGAIPRLVQLLVRAHQDTQRRTSMGGTQQQFVEGVRMEEIVEGCTGALHILARDVHNRIVIRGLNTIPLFVQLLYSPIENIQRVAAGVLCELAQDKEAAEAIEAEGATAPLTELLHSRNEGVATYAAAVLFRMSEDKPQDYKKRLSVELTSSLFRTEPMAWNETADLGLDIGAQGEALGYRQDDPSYRSFHSGGYGQDALGMDPMMEHEMGGHHPGADYPVDGLPDLGHAQDLMDGLPPGDSNQLAWFDTDL
# B3: RGS7 RH domain 333-448 (UniProt P49802); sequence looked up; chain GMDEALKDPVGREQFLKFLESEFSSENLRFWLAVEDLKKRPIKEVPSRVQEIWQEFLAPGAPSAINLDSKSYDKTTQNVKEPGRYTFEDAQEHIYKLMKSDSYPRFIRSSAYQELL
# B4: RANBP2 2631-2695 (Homo sapiens, UniProt P49792); chain DVLIVYELTPTAEQKALATKLKLPPTFFCYKNRPDYVSEEEEDDEDFETAVKKLNGKLYLDGSEK
# B5: CRYBB1 99-252 (Homo sapiens, UniProt P53674); sequence looked up; chain GPWVAFEQSNFRGEMFILEKGEYPRWNTWSSSYRSDRLMSFRPIKMDAQEHKISLFEGANFKGNTIEIQGDDAPSLWVYGFSDRVGSVKVSSGTWVGYQYPGYRGYQYLLEPGDFRHWNEWGAFQPQMQSLRRLRDKQWHLEGSFPVLATEPPK
# B6: CRYBB1 1-190 (Homo sapiens, UniProt P53674); sequence looked up; chain MSQAAKASASATVAVNPGPDTKGKGAPPAGTSPSPGTTLAPTTVPITSAKAAELPPGNYRLVVFELENFQGRRAEFSGECSNLADRGFDRVRSIIVSAGPWVAFEQSNFRGEMFILEKGEYPRWNTWSSSYRSDRLMSFRPIKMDAQEHKISLFEGANFKGNTIEIQGDDAPSLWVYGFSDRVGSVKVSS
# B7: rpn10 (Schizosaccharomyces pombe, UniProt O94444); sequence looked up; chain MVLEATMILIDNSEWMINGDYIPTRFEAQKDTVHMIFNQKINDNPENMCGLMTIGDNSPQVLSTLTRDYGKFLSAMHDLPVRGNAKFGDGIQIAQLALKHRENKIQRQRIVAFVGSPIVEDEKNLIRLAKRMKKNNVAIDIIHIGELQNESALQHFIDAANSSDSCHLVSIPPSPQLLSDLVNQSPIGQGVVASQNQFEYGVDPNLDVELALALELSMAEERARQEVAAQKSSEETEDKKMQE
# B8: TRM112 N43R (Saccharomyces cerevisiae, UniProt P53738); chain MKFLTTNFLKCSVKACDTSNDNFPLQYDGSKCQLVQDESIEFRPEFLLNIVDRVDWPAVLTVAAELGNNALPPTKPSFPSSIQELTDDDMAILNDLHTLLLQTSIAEGEMKCRNCGHIYYIKNGIPNLLLPPHLV
# B9: CSF1 33-496 (Homo sapiens, UniProt P09603); chain EEVSEYCSHMIGSGHLQSLQRLIDSQMETSCQITFEFVDQEQLKDPVCYLKKAFLLVQDIMEDTMRFRDNTPNAIAIVQLQELSLRLKSCFTKDYEEHDKACVRTFYETPLQLLEKVKNVFNETKNLLDKDWNIFSKNCNNSFAECSSQDVVTKPDCNCLYPKAIPSSDPASVSPHQPLAPSMAPVAGLTWEDSEGTEGSSLLPGEQPLHTVDPGSAKQRPPRSTCQSFEPPETPVVKDSTIGGSPQPRPSVGAFNPGMEDILDSAMGTNWVPEEASGEASEIPVPQGTELSPSRPGGGSMQTEPARPSNFLSASSPLPASAKGQQPADVTGTALPRVGPVRPTGQDWNHTPQKTDHPSALLRDPPEPGSPRISSLRPQGLSNPSTLSAQPQLSRSHSSGSVLPLGELEGRRSTRDRRSPAEPEGGPASEGAARPLPRFNSVPLTDTGHERQSEGSFSPQLQES
# B10: LEMD3 755-911 (Homo sapiens, UniProt Q9Y2U8); sequence looked up; chain DKILVIPSKVWQGQAFHLDRRNSPPNSLTPCLKIRNMFDPVMEIGDQWHLAIQEAILEKCSDNDGIVHIAVDKNSREGCVYVKCLSPEYAGKAFKALHGSWFDGKLVTVKYLRLDRYHHRFPQALTSNTPLKPSNKHMNSMSHLRLRTGLTNSQGSS
# B11: Mei5/Sae3 (Saccharomyces cerevisiae); chain 1 MHNQEEWLDKDKTLVNEEENTCINHSYTKKDTNNYRVGKSGIKDLKKPTNQKEIAIKNRELTKQLTLLRQENNHLQQACKILSENKIIENRKSIEKWRTICEMELSFILNSTLIKINRMGGYKDFLEKEMEAKKRRLEYQIDNGMEDQICEIKESDDFRQLSEVEKQEWESQMNEQLKELEKKKIAELEKLNKVLHDSEGKDFGMAELCTRLKLDYSLIFPQ; chain 2 MNYLETQLNKKQKQIQEYESMNGNLIKMFEQLSKEKKNDETPKKISSTYIKELKEYNELRDAGLRLAQIIADEKQCKIKDVFEEIGYSMKD
# Chain of UniProt P59215 (whole entry, looked up): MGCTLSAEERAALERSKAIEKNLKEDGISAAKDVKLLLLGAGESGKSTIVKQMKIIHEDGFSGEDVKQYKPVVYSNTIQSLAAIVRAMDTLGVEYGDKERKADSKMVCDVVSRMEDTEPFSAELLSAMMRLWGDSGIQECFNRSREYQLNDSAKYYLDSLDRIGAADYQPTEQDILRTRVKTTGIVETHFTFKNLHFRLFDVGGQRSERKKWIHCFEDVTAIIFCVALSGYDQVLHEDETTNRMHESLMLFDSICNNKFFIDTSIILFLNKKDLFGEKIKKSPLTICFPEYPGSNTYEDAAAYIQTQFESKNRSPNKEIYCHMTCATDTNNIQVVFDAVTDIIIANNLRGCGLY
# Chain of UniProt P53350 (whole entry, looked up): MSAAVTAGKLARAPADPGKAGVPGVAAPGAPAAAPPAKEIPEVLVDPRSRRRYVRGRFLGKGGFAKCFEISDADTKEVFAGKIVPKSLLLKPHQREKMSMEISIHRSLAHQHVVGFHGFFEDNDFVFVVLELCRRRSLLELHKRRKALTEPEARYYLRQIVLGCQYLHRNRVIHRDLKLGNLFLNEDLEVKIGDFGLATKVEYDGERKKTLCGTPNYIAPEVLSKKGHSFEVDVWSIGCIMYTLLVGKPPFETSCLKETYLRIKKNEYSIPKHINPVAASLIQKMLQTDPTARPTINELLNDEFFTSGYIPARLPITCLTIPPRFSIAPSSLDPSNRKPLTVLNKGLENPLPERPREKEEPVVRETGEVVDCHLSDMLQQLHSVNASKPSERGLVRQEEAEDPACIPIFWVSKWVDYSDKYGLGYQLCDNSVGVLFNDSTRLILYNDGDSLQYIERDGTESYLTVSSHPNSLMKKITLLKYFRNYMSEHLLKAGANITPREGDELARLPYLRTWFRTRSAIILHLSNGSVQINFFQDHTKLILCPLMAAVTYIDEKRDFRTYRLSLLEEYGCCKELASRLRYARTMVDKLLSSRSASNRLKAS
# Chain of UniProt P0A6G7 (whole entry, looked up): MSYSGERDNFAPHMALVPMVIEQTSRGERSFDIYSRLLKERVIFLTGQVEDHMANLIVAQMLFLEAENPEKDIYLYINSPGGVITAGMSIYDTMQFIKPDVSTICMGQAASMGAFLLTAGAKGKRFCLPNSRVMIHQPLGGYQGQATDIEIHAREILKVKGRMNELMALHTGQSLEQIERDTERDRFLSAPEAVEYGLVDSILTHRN
# Chain of UniProt O75899 (whole entry, looked up): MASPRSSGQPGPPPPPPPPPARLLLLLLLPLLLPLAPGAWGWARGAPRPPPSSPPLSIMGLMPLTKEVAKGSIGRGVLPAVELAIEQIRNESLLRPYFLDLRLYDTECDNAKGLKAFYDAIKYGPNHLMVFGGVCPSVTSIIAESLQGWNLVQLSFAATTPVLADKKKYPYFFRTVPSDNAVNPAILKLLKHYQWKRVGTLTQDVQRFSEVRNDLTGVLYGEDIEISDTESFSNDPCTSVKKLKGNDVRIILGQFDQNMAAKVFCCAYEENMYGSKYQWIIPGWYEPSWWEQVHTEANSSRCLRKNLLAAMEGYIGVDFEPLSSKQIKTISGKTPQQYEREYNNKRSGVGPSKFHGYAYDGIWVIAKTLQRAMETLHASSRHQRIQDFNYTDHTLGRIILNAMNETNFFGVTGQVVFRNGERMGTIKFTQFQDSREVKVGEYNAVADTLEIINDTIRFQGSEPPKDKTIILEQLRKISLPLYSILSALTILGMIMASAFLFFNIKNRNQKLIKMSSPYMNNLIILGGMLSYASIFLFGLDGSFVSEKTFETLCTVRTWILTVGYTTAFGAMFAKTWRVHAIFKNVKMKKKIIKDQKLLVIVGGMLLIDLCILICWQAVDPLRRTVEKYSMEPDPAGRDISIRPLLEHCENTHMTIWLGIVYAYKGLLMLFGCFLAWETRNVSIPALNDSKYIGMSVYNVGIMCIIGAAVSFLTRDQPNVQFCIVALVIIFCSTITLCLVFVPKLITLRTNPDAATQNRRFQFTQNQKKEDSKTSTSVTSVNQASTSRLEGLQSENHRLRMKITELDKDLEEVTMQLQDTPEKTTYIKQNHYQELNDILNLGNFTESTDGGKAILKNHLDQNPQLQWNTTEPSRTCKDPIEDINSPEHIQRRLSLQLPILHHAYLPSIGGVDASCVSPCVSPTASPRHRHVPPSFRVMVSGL
# Chain of UniProt P09038 (whole entry, looked up): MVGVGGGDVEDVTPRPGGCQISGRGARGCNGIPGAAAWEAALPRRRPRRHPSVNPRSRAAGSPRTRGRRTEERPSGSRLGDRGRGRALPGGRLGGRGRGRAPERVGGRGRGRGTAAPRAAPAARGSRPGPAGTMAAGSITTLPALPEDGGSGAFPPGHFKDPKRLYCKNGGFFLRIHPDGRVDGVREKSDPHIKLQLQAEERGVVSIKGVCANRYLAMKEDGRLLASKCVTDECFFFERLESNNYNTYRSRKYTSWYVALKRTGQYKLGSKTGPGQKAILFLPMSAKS
# Chain of UniProt P09803 (whole entry, looked up): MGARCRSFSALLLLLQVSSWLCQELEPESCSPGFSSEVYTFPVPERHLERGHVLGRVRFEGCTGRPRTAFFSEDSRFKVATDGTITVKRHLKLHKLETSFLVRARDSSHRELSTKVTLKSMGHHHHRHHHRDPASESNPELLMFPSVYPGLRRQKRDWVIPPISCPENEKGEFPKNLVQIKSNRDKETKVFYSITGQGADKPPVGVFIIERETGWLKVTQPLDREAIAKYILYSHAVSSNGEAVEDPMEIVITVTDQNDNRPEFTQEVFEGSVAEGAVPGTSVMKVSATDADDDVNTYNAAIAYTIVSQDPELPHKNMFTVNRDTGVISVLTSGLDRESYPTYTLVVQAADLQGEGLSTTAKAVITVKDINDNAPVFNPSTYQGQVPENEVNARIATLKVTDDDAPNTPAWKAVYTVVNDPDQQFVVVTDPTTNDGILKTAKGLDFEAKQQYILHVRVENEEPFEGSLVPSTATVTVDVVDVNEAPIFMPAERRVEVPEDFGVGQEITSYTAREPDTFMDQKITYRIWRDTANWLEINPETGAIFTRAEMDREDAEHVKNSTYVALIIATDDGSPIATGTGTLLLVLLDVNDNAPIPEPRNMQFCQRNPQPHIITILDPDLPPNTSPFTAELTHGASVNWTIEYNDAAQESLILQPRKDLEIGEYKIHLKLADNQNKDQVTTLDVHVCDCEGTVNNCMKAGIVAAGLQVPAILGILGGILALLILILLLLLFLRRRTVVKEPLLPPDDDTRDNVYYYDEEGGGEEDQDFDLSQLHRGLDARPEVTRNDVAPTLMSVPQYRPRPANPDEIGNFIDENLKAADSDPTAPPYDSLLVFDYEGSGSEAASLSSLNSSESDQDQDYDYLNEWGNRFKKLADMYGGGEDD
# Chain of UniProt Q8NDT2 (whole entry, looked up): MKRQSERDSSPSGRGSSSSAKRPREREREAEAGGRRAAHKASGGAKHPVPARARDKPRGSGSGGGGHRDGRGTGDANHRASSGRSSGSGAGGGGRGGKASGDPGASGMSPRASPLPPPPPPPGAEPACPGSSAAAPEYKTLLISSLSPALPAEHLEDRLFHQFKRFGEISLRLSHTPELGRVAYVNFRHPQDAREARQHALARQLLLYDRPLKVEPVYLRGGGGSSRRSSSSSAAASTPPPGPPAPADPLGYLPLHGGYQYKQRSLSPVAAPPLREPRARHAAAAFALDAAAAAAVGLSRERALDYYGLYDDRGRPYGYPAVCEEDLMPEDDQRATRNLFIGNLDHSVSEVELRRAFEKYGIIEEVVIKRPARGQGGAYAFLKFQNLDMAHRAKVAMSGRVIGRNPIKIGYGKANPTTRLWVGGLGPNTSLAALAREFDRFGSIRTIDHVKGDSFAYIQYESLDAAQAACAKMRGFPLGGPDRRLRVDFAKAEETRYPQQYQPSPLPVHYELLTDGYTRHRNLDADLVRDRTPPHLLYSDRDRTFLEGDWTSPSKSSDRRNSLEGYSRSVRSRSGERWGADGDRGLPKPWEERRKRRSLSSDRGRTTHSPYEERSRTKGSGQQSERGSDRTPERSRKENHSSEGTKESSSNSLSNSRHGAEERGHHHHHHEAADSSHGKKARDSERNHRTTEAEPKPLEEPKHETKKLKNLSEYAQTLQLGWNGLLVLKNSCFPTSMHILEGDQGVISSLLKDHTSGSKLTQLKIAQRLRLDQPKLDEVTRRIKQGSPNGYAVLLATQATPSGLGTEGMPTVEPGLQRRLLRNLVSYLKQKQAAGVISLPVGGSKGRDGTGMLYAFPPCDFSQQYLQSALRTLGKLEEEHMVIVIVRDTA
# Chain of UniProt P0AGE0 (whole entry, looked up): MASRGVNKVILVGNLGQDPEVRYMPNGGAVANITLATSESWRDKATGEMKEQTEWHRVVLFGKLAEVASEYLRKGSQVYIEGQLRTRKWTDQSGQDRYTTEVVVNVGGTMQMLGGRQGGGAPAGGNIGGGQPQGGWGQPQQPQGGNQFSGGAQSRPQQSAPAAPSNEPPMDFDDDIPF
# Chain of UniProt Q99828 (whole entry, looked up): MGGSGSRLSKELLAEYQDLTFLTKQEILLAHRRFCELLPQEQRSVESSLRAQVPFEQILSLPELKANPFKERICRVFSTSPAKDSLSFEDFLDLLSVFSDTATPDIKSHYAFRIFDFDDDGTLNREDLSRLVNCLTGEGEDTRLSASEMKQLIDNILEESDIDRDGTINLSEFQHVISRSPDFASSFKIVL
# Chain of UniProt Q03920 (whole entry, looked up): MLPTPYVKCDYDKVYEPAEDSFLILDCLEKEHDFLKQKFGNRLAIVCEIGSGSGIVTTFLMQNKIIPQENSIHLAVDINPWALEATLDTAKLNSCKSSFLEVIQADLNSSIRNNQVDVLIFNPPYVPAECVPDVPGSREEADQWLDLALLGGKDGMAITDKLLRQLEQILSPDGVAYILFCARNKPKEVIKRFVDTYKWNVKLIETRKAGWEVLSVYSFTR
Molecule,partner,assay,system,conditions,how to read,endpoint,value
"Kcnt2 (Rattus norvegicus, UniProt Q6UVM4)","Kcnt1 (Rattus norvegicus, UniProt Q9Z258-1)",two-electrode voltage clamp,Xenopus oocytes,,"baseline: partner alone, higher = larger current",whole-oocyte current,18 fold
B1 (MIF4GD),"SLBP, phosphorylated, multiple sites (Homo sapiens, UniProt Q14493)",SPR,,"pH 7.4, 25 °C, NaCl 150 mM",,koff,0.00238 s⁻¹
RQIKIWFQNRREDGGSFWYGAMKALYG (designed peptide),"CIB1 (Homo sapiens, UniProt Q99828)","competition with peptide, competitor, TR-FRET",peptide,,,IC50,> 10000 nM
KAR9 50-residue Site2 peptide (Saccharomyces cerevisiae),"BIM1 194-344 (Saccharomyces cerevisiae, UniProt P40013)",ITC,,"pH 7.5, 25 °C, NaCl 150 mM",,molecule per partner,0.99
"CDKN1A/WRN p21 peptide with WRN PIP-box, C-terminal amide (Homo sapiens)","PCNA (Homo sapiens, UniProt P12004)",SPR,,,,Kd,1150 nM
B2 (Ctnnb1),"Cdh1 157-884 (Mus musculus, UniProt P09803)",co-IP,HEK293T,0.5 µg,"baseline: control, higher = more E-cadherin",E-cadherin coprecipitated,0.27 a.u.
Ac-TGGFQMALT (peptide; N-acetyl),"HSPA8 395-509 (Homo sapiens, UniProt P11142)","competition with tracer, fluorescence polarisation",peptide,together with: FAM-Cdk4-2 tracer,,Ki,120 ± 10 nM
TIMP2 N-terminal domain S4E/N38Q/V71N/H97R/T99S,"MMP9 catalytic domain, no fibronectin 107-215 (Homo sapiens, UniProt P14780)","fluorogenic substrate cleavage, inhibitor, enzyme inhibition assay",,apparent,,Ki,1.28 nM
B3 (RGS7 RH domain 333-448),"Gnao1, AlexaFluor 532 label (Rattus norvegicus, UniProt P59215)",flow cytometry,,"pH 8.0, together with: GDP-AlF4-",,Kd,72 nM
"ssb (Escherichia coli, UniProt P0AGE0)",RecQ helicase and Zn-binding domains (Escherichia coli),"unwinding activity, magnetic tweezers",,without vs with SSB,,ratio of effective affinity constants,3 ratio
"FGF2 (Homo sapiens, UniProt P09038)","FGFR3 isoform IIIc (unknown, UniProt Q61851)","cell proliferation, MTT",BaF3-FGFR3c,"20 nM, 48 h, together with: chondroitin sulfate D 4.9 µg/mL","baseline: FGF 1 with heparin, higher = more proliferation",cell proliferation,1%
"NXF1 (Homo sapiens, UniProt Q9UBU9)","RBM15B (Homo sapiens, UniProt Q8NDT2)","reporter expression, coactivator",293T,in cells,higher = more expression,p24gag expression,2 fold
GABBR1 GABAB1b isoform (Homo sapiens),"GABBR2 42-819 (Homo sapiens, UniProt O75899)",anti-Flag M1 on intact cells,,,"baseline: full-length WT/WT heterodimer, higher = more surface expression",cell surface expression,106%
B4 (RANBP2 2631-2695),RANGAP1/SUMO1/UBE2I RanGAP1 419-578 (Homo sapiens),SENP1 deconjugation protection,,,"baseline: RanGAP1-SUMO2 protection, higher = more protection",protease protection,47 fold
CGA/LHB (Equus caballus),LHCGR D417N (eel),"cAMP response, agonist, HTRF",CHO-K1,"30 min, room temperature",,EC50,0.254 µg/mL
"PROS1 (Homo sapiens, UniProt P07225)","TFPI (Homo sapiens, UniProt P10646-1)","FXa inhibition, enhancer",,"EC50, without FV-short, together with: FXa",,enhancement of FXa inhibition,42 nM
B5 (CRYBB1 99-252),CRYBA1,FRET,,"pH 7.5, 37 °C, 100 mM NaCl",,subunit exchange rate,0.0111 ± 0.0022 min⁻¹
"RCVRLHESCLGQQVPCCDPCATCYCRFFNAFCYCRKLGTAMNPCSRT (AGRP 86-132 (Homo sapiens, UniProt O00253); sequence looked up)","MC4R D189N (Homo sapiens, UniProt P32245)","cAMP, inverse agonist, AlphaScreen",HEK293,apparent,,inverse agonist EC50,30 nM
"TDG (human, UniProt Q13569)","EP300 (Homo sapiens, UniProt Q09472)","H3K18 acetylation, activator, mass spectrometry",,,"baseline: without TDG, higher = faster",acetylation rate increase,1.7 fold
B6 (CRYBB1 1-190),CRYBA1,FRET,,"pH 7.5, 37 °C, 100 mM NaCl",,subunit exchange rate,0.0245 ± 0.0044 min⁻¹
"LHST (CENPU residues 75-78, macrocycle 18-ring, imidazolium, pThr, C-amide; macrocycle 18-ring, imidazolium, pThr, C-amide)","PLK1 (Homo sapiens, UniProt P53350)","competition with ligand, ELISA","peptide, lysate",,,IC50,830 nM
B7 (rpn10),"mts4 (Schizosaccharomyces pombe, UniProt P87048)",co-IP,,,"baseline: mutant strain, higher = more Rpn10",relative amount,12 fold
"Cltc (Mus musculus, UniProt Q68FD5)","Gja1, pS262; pS279/282; pS368 (Mus musculus, UniProt P23242)",co-IP,"mES cells, lysate",together with: PD98059 plus EGF,"baseline: untreated colonies, higher = more co-precipitation",co-precipitated clathrin heavy chain,2.7 fold
B8 (TRM112 N43R),"MTQ2 (Saccharomyces cerevisiae, UniProt Q03920)",eRF1 methylation,,,"baseline: wild-type enzyme, higher = more activity",MTase activity,58%
CBFB/MYH11 fusion (Homo sapiens),"RUNX1 (Homo sapiens, UniProt Q01196)",ChIP,ME-1,"6 hours h, CEBPA promoter, together with: AI-10-49 1 µM","baseline: DMSO, higher = more occupancy",RUNX1 occupancy,8 fold
"FGF14 fragment, N-terminal adamantanecarbonyl, Glu tert-butyl ester, C-terminal ethyl ester (Homo sapiens)","FGF14 64-252 (Homo sapiens, UniProt Q92915-2)",SPR,,,,kon,217 M⁻¹ s⁻¹
B9 (CSF1 33-496),"CSF1R Fc fusion D1-D5 M149K (Homo sapiens, UniProt P07333)",SPR,,"pH 7.4, NaCl 0.15 M",,koff,0.029 s⁻¹
B10 (LEMD3 755-911),"SMAD2 186-467 S-to-E phosphomimetic (Homo sapiens, UniProt Q15796)",ITC,,20 °C,,ΔH,-8.4 kcal/mol
"ClpP mature (Escherichia coli, UniProt P0A6G7)","clpX (Escherichia coli, UniProt P0A6H1)",peptide cleavage,,together with: ATPγS,"baseline: ClpP alone, higher = faster cleavage",peptide cleavage rate,40 fold
B11 (Mei5/Sae3),"DMC1 (Saccharomyces cerevisiae, UniProt P25453)",smFRET,,without Ca2+,"baseline: Dmc1 alone, higher = longer dwell",dwell time of three-Dmc1 state,2 fold

# Excerpt of the above:
Molecule,partner,assay,system,conditions,how to read,endpoint,value
B4 (RANBP2 2631-2695),RANGAP1/SUMO1/UBE2I RanGAP1 419-578 (Homo sapiens),SENP1 deconjugation protection,,,"baseline: RanGAP1-SUMO2 protection, higher = more protection",protease protection,47 fold
CGA/LHB (Equus caballus),LHCGR D417N (eel),"cAMP response, agonist, HTRF",CHO-K1,"30 min, room temperature",,EC50,0.254 µg/mL
"PROS1 (Homo sapiens, UniProt P07225)","TFPI (Homo sapiens, UniProt P10646-1)","FXa inhibition, enhancer",,"EC50, without FV-short, together with: FXa",,enhancement of FXa inhibition,42 nM
